{"data": "Earlier results that unrelated publications cite", "note": "Protocols differ between the studies behind these lines. ± marks the error that the study gave."}
{"SMILES": "CNC(C)C1CCC(N)C(OC2C(N)CC(N)C(OC3OCC(C)(O)C(NC)C3O)C2O)O1 (centres unmarked)", "cell line": "COS-7", "test": "cytotoxicity", "quantity": "CC50", "value": "750 ± 100 µM"}
{"SMILES": "COc1ccc2nc3cc(Cl)ccc3c(Nc3cc(CN4CCCC4)c(O)c(CN4CCCC4)c3)c2n1", "cell line": "A549-ACE2", "quantity": "CC50", "value": "11.5 µM"}
{"SMILES": "N[C@@H](Cc1ccc(N(CCCl)CCCl)cc1)C(=O)O", "cell line": "HPLF periodontal ligament fibroblasts", "quantity": "CC50", "value": "> 200 µM"}
{"SMILES": "Cl.Cl.O=C(c1cc(F)cc(N2CCNCC2)c1)N1CCN(C(=O)c2ccc(O[C@H]3CCNC3)c(C3CCCCC3)c2)CC1", "cell line": "Wnt-activated cancer cells", "test": "cytotoxicity", "how to read": "reference: Wnt-activated over Wnt-latent cells", "quantity": "selectivity ratio", "value": "> 10 fold"}
{"SMILES": "CC(=O)Nc1ccc(O)cc1", "cell line": "Huh-7", "test": "cytotoxicity", "conditions": "lowest literature value", "quantity": "CC50", "value": "137 µM"}
{"SMILES": "CCCCCOc1ccc(-c2cc(-c3ccc(C(=O)N[C@H]4C[C@@H](O)[C@@H](O)NC(=O)[C@@H]5[C@@H](O)[C@@H](C)CN5C(=O)[C@H]([C@H](O)CC(N)=O)NC(=O)[C@H]([C@H](O)[C@@H](O)c5ccc(O)c(OS(=O)(=O)O)c5)NC(=O)[C@@H]5C[C@@H](O)CN5C(=O)[C@H]([C@@H](C)O)NC4=O)cc3)no2)cc1", "cell line": "sandwich-cultured human hepatocytes", "conditions": "no albumin", "quantity": "in vitro intrinsic biliary clearance", "value": "14 ± 9 µL/min/mg"}
{"SMILES": "C=C1[C@@H](O)C[C@H]2C(C)(C)CCC[C@]2(C)[C@H]1C[C@H](O)[C@H]1CC(=O)NC1=O", "cell line": "P388", "test": "cytotoxicity", "conditions": "literature value", "quantity": "IC50", "value": "0.1 µM"}
{"SMILES": "NC(=O)CBr", "cell line": "CHO", "test": "DNA damage", "quantity": "EC50", "value": "36.8 µM"}
{"SMILES": "Cc1nnc(C(=O)NC(C)(C)c2nc(C(=O)NCc3ccc(F)cc3)c(O)c(=O)n2C)o1", "cell line": "HOS", "test": "measured: ATP level", "quantity": "CC50", "value": "> 250 µM"}
{"SMILES": "COc1cc2c3c(n(CCCNCCO)c(=O)c2cc1OC)-c1cc2c(cc1C3=O)OCO2", "cell line": "NCI-60 panel (60 lines)", "conditions": "mean graph midpoint", "quantity": "GI50", "value": "0.21 ± 0.19 µM"}
{"SMILES": "CC1(C)CCCC(C)(C)N1[O]", "cell line": "HaCaT", "test": "cytotoxicity", "conditions": "24 h", "quantity": "IC50", "value": "2660 µM"}
